Measured values collected from several papers.
Protocols differ between the studies behind these lines. “And” joins repeats or separate records; there may be more than shown. ± gives the spread as reported.

Compound	test	system	setting	scale	measurement	value
COc1ccc(C[C@@H]2NC(=O)[C@H]([C@@H](C)O)NC(=O)[C@@H]3[C@@H]4CCN3C(=O)[C@@H]3Cc5cn(c6ccc(F)cc56)CCCCCCN(Cc5ccc(cc5)CCNC(=O)[C@]5(C)CCCN5C2=O)C(=O)CCC(=O)N[C@@H](C)C(=O)N[C@H](CNC(=O)CCCCC[N+](C)(C)C)C(=O)N[C@@H](Cc2cccc(c2)CNC(=O)CO4)C(=O)N3)cc1	measured: Fatigue	humans	concentration not given, Study-001	–	participants with adverse event	2%
C[C@@H](NC(=O)N1C(=O)[C@H](Cc2ccnc(N)c2)[C@H]1C(=O)O)C1CCCCC1	–	healthy adult Chinese volunteers	continuous intravenous infusion, 2.25 mg/kg/h, 5-day infusion, CTCAE 5.0 grading	–	incidence of decreased hemoglobin	0%
Cn1cncc1-c1c(F)cncc1NC(=O)c1c(N)nn2cc(F)cnc12	–	human patients	oral, dose not given, all doses	–	grade ≥3 white blood cells decreased	4%
COc1ccc(-c2c(-c3ccc(C#N)c(F)c3)nc(N3CCC(N)CC3)n(C)c2=O)cc1F	measured: Urticaria	human patients	oral, 60 mg, dose expansion	–	serious adverse event incidence	0%
CC1(C)[C@H](C=C(Cl)Cl)[C@H]1C(=O)OCc1cccc(Oc2ccccc2)c1	measured: CYP2C8	human, age 5 years, recombinant human CYP2C8	0.1 µM	–	enzyme contribution to clearance	0.04%
CC(C)C[C@H](NC(=O)[C@H](CCCCN)NC(=O)OCC1c2ccccc2-c2ccccc21)C(=O)N[C@H](C(=O)N[C@@H](Cc1ccccc1)C(=O)N[C@@H](Cc1ccccc1)C(=O)N[C@@H](CCCCN)C(=O)NCC(=O)N[C@@H](Cc1ccccc1)C(=O)N[C@@H](C)C(=O)N[C@@H](Cc1c[nH]c2ccccc12)C(=O)N[C@@H](CC(N)=O)C(=O)N[C@H](C(=O)N[C@H]1CSSC[C@@H](C(=O)N[C@@H](Cc2c[nH]cn2)C(=O)N[C@@H](CCCNC(=N)N)C(=O)N[C@@H](CCCNC(=N)N)C(=O)N[C@@H](C)C(=O)N[C@@H](CC(N)=O)C(N)=O)NC(=O)[C@H](C(C)C)NC(=O)[C@H](CCCNC(=N)N)NC(=O)[C@H](C(C)C)NC(=O)CNC(=O)[C@H](CC(N)=O)NC(=O)[C@H](CCCNC(=N)N)NC(=O)[C@H](Cc2ccc(O)cc2)NC(=O)[C@H](C(C)C)NC1=O)C(C)C)C(C)C	–	ICR mice, blood	intraperitoneal, 5 mg/kg, day 5	–	neutrophils	18.6 ± 1%
CCCSc1ccc2nc(NC(=O)OC)[nH]c2c1	–	mouse, blood	oral, 50 mg/kg	–	red cell distribution width (SD)	27.7 fL
O=C1Nc2cc3[nH]nc(-c4ccncc4)c3cc2CN1Cc1ccccc1	measured: respiratory tract infection	patients with advanced solid tumours	intravenous, dose not given	–	patients with grade ≥3 TEAE	7%
Cc1cccc(Cn2nc(C3CC3)c3c(NC(=O)c4cnc5cc(OCCN6CCN(C)CC6)ccn45)cccc32)n1	CTCAE v4.03, measured: ALT increased	advanced solid tumour patients	oral, dose not given, all cohorts, together with: pembrolizumab IV every 3 weeks	–	all-cause adverse events	21.1%
C=CCNc1c(O)cc2c(O)c1C[C@@H](C)C[C@H](OC)[C@H](O)[C@@H](C)/C=C(\C)[C@H](OC(N)=O)[C@@H](OC)/C=C\C=C(/C)C(=O)N2	–	unresectable or metastatic sarcoma	intravenous, 150 mg/m^2, grade 3-4 lab change	–	patients with ALP increase	33%
CN[C@@H](C)C(=O)N[C@H]1CN(S(=O)(=O)c2cccc(S(=O)(=O)N3CC[C@H]4CC[C@@H](C(=O)NC(c5ccccc5)c5ccccc5)N4C(=O)[C@@H](NC(=O)[C@H](C)NC)C3)c2)CC[C@H]2CC[C@@H](C(=O)NC(c3ccccc3)c3ccccc3)N2C1=O	–	patients advanced solid tumours	dose not given, all grades all doses	–	treatment-related facial nerve disorder	10.7%
C[C@]1(CO)Cc2ncn(-c3ccc(C#N)c(Cl)c3)c2C(=O)O1	investigator-assessed	human	20 mg single dose	–	subjects with drug-related TEAEs	28.6%
N=C(CC(O)c1cc2c(F)cc(F)cc2c2cc(C(F)(F)F)ccc12)Nc1ccc(Br)cc1 (stereo not drawn)	–	human	30 min	–	blood-to-plasma ratio	0.97 ± 0.07
COc1cc2c(Oc3ccc4[nH]c(C)cc4c3F)ccnc2cc1OCC1(N)CC1	–	paediatric recurrent refractory sarcoma	10 mg	–	grade 1 or 2 Hypertension	25%
COc1ncnn2ccc(-c3cnc4nc(C)n(Cc5nnc([C@@H](C)F)o5)c4c3)c12	–	human	oral, dose not given, grade 2	–	patients with amylase increased	7.1%
CCc1ccc(CC/C=C/c2ccc3c(c2)C(=O)CC3)cc1	–	Sprague-Dawley rat, female	oral, 120 mg/kg/day, 14 days	–	TG	0.58 mM
CO[C@H]1C[C@@H]2CC[C@@H](C)[C@@](O)(O2)C(=O)C(=O)N2CCCC[C@H]2C(=O)O[C@H]([C@H](C)C[C@@H]2CC[C@@H](OC(=O)NCCOCCOCCOCCOCCOCCOCCOCCOCCC(=O)N3CCc4cc(Cn5nc(-c6ccc7oc(N)nc7c6)c6c(N)ncnc65)ccc4C3)[C@H](OC)C2)C[C@@H](O)[C@H](C)/C=C(\C)[C@@H](O)[C@@H](OC)C(=O)[C@H](C)C[C@H](C)/C=C/C=C/C=C/1C	–	patients with advanced solid tumours	intravenous, dose not given, any grade	–	incidence of Dysgeusia TEAE	15.8%
NC(=O)N1c2ccccc2C=Cc2ccccc21	PAMPA	pre-coated trilayer membrane	200 µM, 5 h, pH 7.4, donor plate, PBS	–	donor concentration	150 ± 6 µM

Compound	test	system	setting	scale	measurement	value
NCCCC[C@@H]1NC(=O)[C@@H](Cc2c[nH]c3ccccc23)NC(=O)[C@H](c2ccccc2)NC(=O)[C@@H]2C[C@@H](OC(=O)NCCN)CN2C(=O)[C@H](Cc2ccccc2)NC(=O)[C@H](Cc2ccc(OCc3ccccc3)cc2)NC1=O	–	healthy human volunteers	1950 µg twice daily	–	subjects with injection-site erythema	90%
O=C(Nc1ccccc1)C1CCN(C(=O)Oc2cccnc2)CC1	–	healthy women	oral, 100 mg, 9 days	–	adverse event Rash	0%
CCC[C@H]1CC[C@H](c2ccc(-c3ccc(F)cc3)cc2)CC1	–	rat, placenta	1000 ng/mL in perfusate, middle dose, mixture of 21 LCMs	–	placental accumulation	10.6 ± 15 ng/g
CC[C@H](C)[C@H](NC(=O)[C@H](CCCCN)NC(=O)[C@H](CCC(=O)O)NC(=O)[C@H](CCCCN)NC(=O)[C@H](CO)NC(=O)[C@H](CCCCN)NC(=O)[C@H](CCCNC(=N)N)NC(=O)[C@H](Cc1ccccc1)NC(=O)[C@H](Cc1ccccc1)NC(=O)[C@H](CC(=O)O)NC(=O)CNC(=O)[C@H](CC(C)C)NC(=O)[C@@H](N)CC(C)C)C(=O)NCC(=O)N[C@@H](CCCCN)C(=O)N[C@@H](CCC(=O)O)C(=O)N[C@@H](Cc1ccccc1)C(=O)N[C@@H](CCCCN)C(=O)N[C@@H](CCCNC(=N)N)C(=O)N[C@H](C(=O)N[C@H](C(=O)N[C@@H](CCC(N)=O)C(=O)N[C@@H](CCCNC(=N)N)C(=O)N[C@H](C(=O)N[C@@H](CCCCN)C(=O)N[C@@H](CC(=O)O)C(=O)N[C@@H](Cc1ccccc1)C(=O)N[C@@H](CC(C)C)C(=O)N[C@@H](CCCNC(=N)N)C(=O)N[C@@H](CC(N)=O)C(=O)N[C@@H](CC(C)C)C(=O)N[C@H](C(=O)N1CCC[C@H]1C(=O)N[C@@H](CCCNC(=N)N)C(=O)N[C@H](C(=O)N[C@@H](CCC(=O)O)C(=O)N[C@@H](CO)C(=O)O)[C@@H](C)O)C(C)C)[C@@H](C)CC)C(C)C)[C@@H](C)CC	LC-MS	buffer with trypsin	40 µM, 20 min, pH 7.5, 37 °C	relative to: 0 h	remaining intact peptide	8.7% and 8.81% and 10.8%
Cc1cc(C)c(CNC(=O)c2cc(Cl)c3c(c2C)O[C@@](C)([C@H]2CC[C@H](N(C)C)CC2)O3)c(=O)[nH]1	–	human, relapsed/refractory NHL	concentration not given, all TEAEs, grade 5	–	Hypercalcaemia incidence	0%
COc1cccc2c1CCCC2CCCN1CCN(C2CCCCC2)CC1 (stereo not drawn)	–	CD-1 mouse, male, plasma	intraperitoneal, 1 mg/kg	–	AUC(0-inf)	78.2 ng·h/mL
CN1CC[C@@H](c2c(O)cc(O)c3c(=O)cc(-c4ccc(C(F)(F)F)cc4Cl)oc23)[C@@H]1CO	measured: Leukopenia	relapsed B-cell malignancies or AML	oral, 100 mg, grade 3-4, continuous dosing	–	patients with adverse event	0%
O=C(O)CCCOc1ccc(F)cc1-c1cc(-c2ccccc2C(F)(F)F)n(-c2ccccc2)n1	measured: ovaries	Crl:CD(SD) rats, female	iv, 25 µg/kg, 1 day	–	organ weight	84.6 ± 15.4 mg
N[C@@H]1c2ccccc2OC12CCN(c1cnc3c(N4CCCc5ncccc54)n[nH]c3n1)CC2	–	advanced solid tumour patients	oral, 50 mg once daily	–	patients with serious TEAE	33.3%
CCN(CCO)CCCC(C)Nc1ccnc2cc(Cl)ccc12 (stereo not drawn)	–	newly diagnosed glioblastoma patients	oral, 200 mg/dose, grade 1, together with: radiotherapy plus temozolomide	–	creatinine increased patients	33%
CN1CCN(S(=O)(=O)c2cc([N+](=O)[O-])ccc2N(CCOS(C)(=O)=O)CCOS(C)(=O)=O)CC1	–	naive NOD/SCID mice, pooled blood	intraperitoneal, 18.8 mg/kg, week 4	–	blood urea nitrogen	11 mmol/L
C[C@@H]1OC(=O)NN=C1c1ccc(-c2ccc(F)cc2)c(C(F)(F)F)c1	phase I trial, measured: muscle spasms all grades	human patients	5 mg loading then 0.25 mg daily	–	patients with adverse event	100%
CC(C)(C)[C@H](NC(=O)[C@H](CCONC(=N)N)NC(=O)Cc1ccc(CNC(=N)N)cc1)C(=O)N[C@@H](CCONC(=N)N)C(=O)NCc1ccc(C(=N)N)cc1	–	Sprague Dawley rat, male, plasma	intravenous, 1 mg/kg, 3 h	–	concentration at time	154 ng/mL
CC(=O)c1c(C)c2cnc(Nc3ccc(C4CCN(CCS(C)(=O)=O)CC4)cn3)nc2n(C2CCCC2)c1=O	–	HR+/HER2- advanced breast cancer patients	oral, dose not given, all grades, dose escalation, sample B patients	–	patients with neutropenia	73.7%
N=C(N)NCCC[C@@H](NC(=O)[C@@H](N)Cc1ccccc1)C(=O)N[C@@H](Cc1ccccc1)C(=O)N[C@@H](CCCCN)C(N)=O	LC-MS	human	25 mg, 23.83 h	–	mean amount excreted in urine	445000 ng
CCCCCOc1ccc(-c2ccc(-c3ccc(C(=O)N[C@H]4C[C@@H](O)[C@@H](OCC[N+](C)(C)C)NC(=O)[C@@H]5[C@@H](O)[C@@H](C)CN5C(=O)[C@H]([C@@H](C)O)NC(=O)[C@H]([C@H](O)[C@@H](O)c5ccc(O)cc5)NC(=O)[C@@H]5C[C@@H](O)CN5C(=O)[C@H]([C@@H](C)O)NC4=O)cc3)cc2)cc1	–	adult ICU patients, mITT, serum	dose not given, day 14	–	aspartate aminotransferase	20.4 U/L
O=S(=O)(Nc1ccccc1)c1ccc(NC(=S)Nc2ccccc2)cc1	measured: AST	female mouse, blood	oral, 80 mg/kg daily, 14 days	–	serum enzyme activity	531 U/L
C=CC(=O)Nc1cc(Nc2nccc(Nc3cc(Cl)c(F)cc3C(C)(C)O)n2)c(OC)cc1N1CC[C@@H](N(C)C)C1	treatment-emergent adverse events	human	oral, 300 mg, phase I clinical trial	–	incidence of weight decreased	11.8%

For quick reference, copied from above:
Compound	test	system	setting	scale	measurement	value
CCN(CCO)CCCC(C)Nc1ccnc2cc(Cl)ccc12 (stereo not drawn)	–	newly diagnosed glioblastoma patients	oral, 200 mg/dose, grade 1, together with: radiotherapy plus temozolomide	–	creatinine increased patients	33%
CN1CCN(S(=O)(=O)c2cc([N+](=O)[O-])ccc2N(CCOS(C)(=O)=O)CCOS(C)(=O)=O)CC1	–	naive NOD/SCID mice, pooled blood	intraperitoneal, 18.8 mg/kg, week 4	–	blood urea nitrogen	11 mmol/L
C[C@@H]1OC(=O)NN=C1c1ccc(-c2ccc(F)cc2)c(C(F)(F)F)c1	phase I trial, measured: muscle spasms all grades	human patients	5 mg loading then 0.25 mg daily	–	patients with adverse event	100%
